Measurements pooled from the literature.
Compare with care: the assays were run in different laboratories. Several values in a cell are separate wells, animals, samples, runs or records. ± gives the spread as reported.
UCHL1: Ubiquitin carboxyl-terminal hydrolase isozyme L1 (UCHL1, Homo sapiens, UniProt P09936)
UniProt P09936, sequence (whole entry, looked up): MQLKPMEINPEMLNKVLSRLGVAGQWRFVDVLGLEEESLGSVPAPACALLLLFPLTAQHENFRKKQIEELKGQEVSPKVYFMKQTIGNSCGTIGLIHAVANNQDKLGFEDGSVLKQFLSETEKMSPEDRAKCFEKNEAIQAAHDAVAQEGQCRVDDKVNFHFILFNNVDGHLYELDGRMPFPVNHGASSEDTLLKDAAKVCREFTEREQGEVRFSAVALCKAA

With `COc1cc(C#CC(=O)c2ccccc2OC)ccc1O` the biofilm formation was 70% (Pseudomonas aeruginosa; static biofilm; PA14; 10 µM, 24 h; baseline: DMSO).
`CC[C@H](C)CCCCC(=O)N[C@@H](CCN)C(=O)N[C@H](C(=O)N[C@@H](CCN)C(=O)N[C@H]1CCNC(=O)[C@H]([C@@H](C)O)NC(=O)[C@H](CCN)NC(=O)[C@H](CCN)NC(=O)[C@H](CC(C)C)NC(=O)[C@@H](CC(C)C)NC(=O)[C@H](CCN)NC1=O)[C@@H](C)O` gave an MIC of 0.107 µM (Pseudomonas aeruginosa; broth microdilution; ATCC 35218, cation-adjusted Mueller-Hinton broth).
For `N=C(N)c1ccc(OCc2ccc(Br)cc2COc2ccc(C(=N)N)cc2)cc1`, “MIC in combination” read 6.25 µg/mL (Pseudomonas aeruginosa; ATCC 27853; concentration not given, added: rifampicin).
With `OB(O)c1csc2ccccc12` the growth was 103% and 105% and 92.4% and 89.6% and 102% (Pseudomonas aeruginosa; 100 µM, 10 h; baseline: untreated).
For `CCc1ccc(NC(=O)C(C#N)=Cc2ccn(-c3ccccc3)n2)cc1`, the labelling was 12.8% (UCHL1; covalent, intact protein LC-MS; 12.5 µM).
For `NCCCC[C@H](NC(=O)[C@H](Cc1ccccc1)NC(=O)[C@H](CCC(N)=O)NC(=O)[C@H](Cc1ccccc1)NC(=O)[C@H](CCC(N)=O)NC(=O)[C@@H](N)Cc1ccccc1)C(N)=O`, the MBC was 2080 µM (Pseudomonas aeruginosa).
`N=C(N)c1ccc(OCc2cc(Br)cc(COc3ccc(C(=N)N)cc3)c2)cc1` — result for “MIC in combination”: 25 µg/mL (Pseudomonas aeruginosa; ATCC 27853; concentration not given, added: rifampicin).
`O=C(NCCc1ccccc1)C1COC2(CCCCC2)O1` (centres unmarked) gave a residual biofilm of 18 ± 5% (Pseudomonas aeruginosa; crystal violet staining; 500 µg/mL, 24 h; baseline: untreated).
Under “MIC in combination”, `N=C(N)c1ccc(OCc2ccc(-c3ccccc3)cc2COc2ccc(C(=N)N)cc2)cc1` is recorded as 6.25 µg/mL (Pseudomonas aeruginosa; ATCC 27853; concentration not given, added: rifampicin).
With `O=C(N[C@@H](Cc1ccccc1)C(=O)O)C1COC2(CCCCC2)OC1` the residual biofilm was 16 ± 3% (Pseudomonas aeruginosa; crystal violet staining; 500 µg/mL, 24 h; baseline: untreated).
Under “MIC fold reduction”, `C[C@@H](O)[C@H]1C(=O)N2C(C(=O)O)=C(S[C@@H]3CN[C@H](C(=O)N(C)C)C3)[C@H](C)[C@H]12` is recorded as 8 fold (Pseudomonas aeruginosa; checkerboard; carbapenem-resistant; concentration not given, added: anionic gold nanoparticle 8 µg/mL; baseline: MIC alone over combination).
`COc1cc(C#CC(=O)C2CCCCC2)ccc1O` gave a biofilm formation of 42% (Pseudomonas aeruginosa; static biofilm; PA14; 10 µM, 24 h, static; baseline: DMSO).
Under “MIC in combination”, `N=C(N)c1ccc(OCCC(CCOc2ccc(C(=N)N)cc2)c2ccccc2)cc1` (centres unmarked) is recorded as 25 µg/mL (Pseudomonas aeruginosa; ATCC 27853; concentration not given, added: rifampicin).
`C[C@@H](O)[C@H]1C(=O)N2C(C(=O)O)=C(S[C@@H]3CN[C@H](C(=O)N(C)C)C3)[C@H](C)[C@H]12` — result for “lung bacterial burden”: 4.54 log CFU and 5.15 log CFU and 4.07 log CFU and 4.16 log CFU and 4.29 log CFU and 3.7 log CFU and 3.71 log CFU and 4.17 log CFU (Pseudomonas aeruginosa; CIP 27853, mouse lung infection model, lung; 10 mg/kg, 24 h).
For `N=C(N)c1ccc(OCc2cccc(COc3ccc(C(=N)N)cc3)c2)cc1`, “MIC in combination” read 50 µg/mL (Pseudomonas aeruginosa; ATCC 27853; concentration not given, added: rifampicin).
`CNC(C)C1CCC(N)C(OC2C(N)CC(N)C(OC3OCC(C)(O)C(NC)C3O)C2O)O1` (centres unmarked) has an MIC of 32 µM (Pseudomonas aeruginosa; clinical isolate P.A301, RPMI with 10% FBS; 37 °C).
With `COc1cc(C#CC(=O)c2ccccc2Cl)ccc1O` the biofilm formation was 76% (Pseudomonas aeruginosa; static biofilm; PA14; 10 µM, 24 h, static; baseline: DMSO).
For `C[C@H]1COc2c(N3CCN(C)CC3)c(F)cc3c(=O)c(C(=O)O)cn1c23`, the MBC was 7.81 µg/mL (Pseudomonas aeruginosa; ATCC 47085; 20 h).
`CO[C@@H]1[C@@H](OC(N)=O)[C@@H](O)[C@H](Oc2ccc3c(O)c(NC(=O)c4ccc(O)c(CC=C(C)C)c4)c(=O)oc3c2C)OC1(C)C` — result for growth: “inhibited” (Pseudomonas aeruginosa; OD600; PAO1 wild type; concentration not given, 24 h, LB medium).
The growth of `COC(=O)[C@@H](NCc1cc2ccccc2nc1OCc1ccccc1)C(C)C` is reported as 97.4% (Pseudomonas aeruginosa; 8 µg/mL, added: pentamidine 100 µM; baseline: control).
`COc1ccccc1C(=O)C#Cc1ccc(F)c(F)c1` gave a mRNA level of 46% (Pseudomonas aeruginosa; RT-qPCR, measured: phzC1; biofilm cells; 10 µM, 24 h; baseline: untreated).
For `C[C@@H](O)[C@H]1C(=O)N2C(C(=O)O)=C(S[C@@H]3CN[C@H](CNS(N)(=O)=O)C3)[C@H](C)[C@H]12`, “MIC fold reduction” read 4 fold (Pseudomonas aeruginosa; checkerboard; carbapenem-resistant; concentration not given, added: anionic gold nanoparticle 8 µg/mL; baseline: MIC alone over combination).
`COc1cc(C#CC(=O)CC(C)C)ccc1O` gave a biofilm formation of 68% (Pseudomonas aeruginosa; static biofilm; PA14; 10 µM, 24 h, static; baseline: DMSO).
`N=C(N)c1ccc(OCCCCCOc2ccc(C(=N)N)cc2)cc1` gave a growth of 99% (Pseudomonas aeruginosa; 50 µM; baseline: untreated).
The IC50 of `COc1cccc(C(=O)C#Cc2ccc(F)c(F)c2)c1` is reported as 41 µM (Pseudomonas aeruginosa; biofilm formation; PA14; static).
`COC(=O)[C@H](Cc1ccccc1)NC(=O)C1COC2(CCCCC2)OC1` has a residual biofilm of 39 ± 11% (Pseudomonas aeruginosa; crystal violet staining; 500 µg/mL, 24 h; baseline: untreated).
`COC(=O)[C@H](Cc1ccc(O)cc1)NCc1cc2ccccc2nc1SC` has a growth of 96.5% (Pseudomonas aeruginosa; 4 µg/mL, without pentamidine; baseline: control).
The residual biofilm of `CC1(C)OCC(C(=O)NCc2ccccc2)O1` (centres unmarked) is reported as 32 ± 14% (Pseudomonas aeruginosa; crystal violet staining; 500 µg/mL, 24 h; baseline: untreated).
The growth inhibition of `NC[C@H]1O[C@H](O[C@H]2[C@H](O)[C@@H](O[C@H]3O[C@H](CO)[C@@H](O)[C@H](N)[C@H]3O)[C@H](N)C[C@@H]2N)[C@H](O)[C@@H](O)[C@@H]1O` is reported as 86% (Pseudomonas aeruginosa; concentration not given, 0.2 mg/mL).
`COc1cc(C#CC(=O)c2ccc(C(F)(F)F)cc2)ccc1O` gave a biofilm formation of 66% (Pseudomonas aeruginosa; static biofilm; PA14; 10 µM, 24 h; baseline: DMSO).
With `COC(=O)[C@H](C)NC(=O)[C@H](Cc1ccccc1)NC(=O)C1OCC2(CCCCC2)CO1` the residual biofilm was 15 ± 4% (Pseudomonas aeruginosa; crystal violet staining; 500 µg/mL, 24 h; baseline: untreated).
For `Cn1c(=O)oc2cc(C(=O)CCl)ccc21`, the labelling was 32.2% (UCHL1; covalent, intact protein LC-MS; 12.5 µM).
The bacterial load of `C[C@@H](O)[C@H]1C(=O)N2C(C(=O)O)=C(SCCN=CN)C[C@H]12` is reported as 6.86 log10 CFU and 6.6 log10 CFU and 6.64 log10 CFU and 7.08 log10 CFU and 6.9 log10 CFU and 7.05 log10 CFU (Pseudomonas aeruginosa; BAA-2797, mouse, peritonitis model, kidney; intraperitoneal, 10 mg/kg single dose).
For `C[C@@H](O)[C@H]1C(=O)N2C(C(=O)O)=C(SCCN=CN)C[C@H]12`, “MIC fold reduction” read 1 fold (Pseudomonas aeruginosa; checkerboard; carbapenem-resistant; concentration not given, added: anionic gold nanoparticle 8 µg/mL; baseline: MIC alone over combination).
`N=C(N)c1ccc(OCCCCCOc2ccc(C(=N)N)cc2)cc1` gave an FICI of no more than 0.5 (Pseudomonas aeruginosa; checkerboard; ATCC 27853; unit not given, added: rifampicin; lower = stronger synergy).
`CC(C)(O/N=C(\C(=O)N[C@@H]1C(=O)N2C(C(=O)[O-])=C(C[n+]3ccccc3)CS[C@H]12)c1csc(N)n1)C(=O)O` has an MIC of greater than 128 µg/mL (Pseudomonas aeruginosa; R13-94 PER-producing isolate).
`N=C(N)c1ccc(OCc2cc(COc3ccc(C(=N)N)cc3)cc(-c3ccccc3)c2)cc1` gave an FICI of 0.5 (Pseudomonas aeruginosa; checkerboard; ATCC 27853; unit not given, added: rifampicin; lower = stronger synergy).
`O=C(NCc1ccccc1)C1COC2(CCCCC2)O1` (centres unmarked) gave a residual biofilm of 49 ± 5% (Pseudomonas aeruginosa; crystal violet staining; 500 µg/mL, 24 h; baseline: untreated).
